Published values gathered from unrelated publications.
Compare with care: the assays were run in different laboratories. Numbers after ± are the reported error.

| SMILES | assay | test system | conditions | half-life |
| --- | --- | --- | --- | --- |
| CC(=O)N1CCC(Nc2cc(C(=O)NC[C@H](O)CN3CCc4ccccc4C3)ncn2)CC1 | – | human, plasma | oral, 300 mg, week 3 day 1, geometric mean | 6.84 h |
| CC(C)c1nc(N(C)S(C)(=O)=O)nc(-c2ccc(F)cc2)c1/C=C/[C@@H](O)C[C@@H](O)CC(=O)O | – | human, plasma | oral, 20 mg, day 2, mean, single agent | 15 h |
| Cc1noc(C)c1-c1cc(C(O)(c2ccccn2)c2ccccn2)c2nc(C3CC3)[nH]c2c1 | – | human patients, plasma | oral, 1.4 mg, cycle 1 day 8, monotherapy | 28.7 h |
| NC(=S)NN=Cc1ncccc1N | LC-MS/MS | human, plasma | – | 1.4 h |
| COc1cc([C@@H]2[C@H]3CO[C@@]4(O)C(=O)[C@@H]2C=C([C@H]2Oc5cc(O)cc(O)c5C(=O)[C@@H]2O)[C@@H]34)ccc1O | – | OATP1B1/1B3 humanized mice, plasma | oral gavage, 500 mg/kg silymarin | 4.4 h |
| O=C(O)CCC(=O)O.[2H]C([2H])([2H])Oc1cc(C)c2[nH]ccc2c1CN1CC[C@@H](C2CC2)C[C@H]1c1ccc(C(=O)O)cc1 | – | human, fasted, plasma | oral, 200 mg, single ascending dose | 31 h |
| CCN1CCN(Cc2ccc(Nc3ncc(F)c(-c4cc(F)c5nc(C)n(C(C)C)c5c4)n3)nc2)CC1 | – | healthy human, fasted | oral, 150 mg, 3 x 50 mg capsules | 26.3 h |
| NCCCS(=O)(=O)O | – | human, plasma | oral, 171 mg once daily, day 1, capsule, fasted | 8.99 h |
| Cc1cccc(F)c1N1CCC(N2Cc3cn(CC(C)(F)F)nc3N(Cc3ccccc3C(F)(F)F)C2=O)CC1 | – | human healthy subjects, plasma | oral, 100 mg, single dose, fed, geometric mean | 40.8 h |
| CCN1CCN(Cc2ccc(Nc3ncc(F)c(-c4cc(F)c5nc6n(c5c4)[C@H](C)CCC6)n3)nc2)CC1 | – | human, plasma | 50 mg single dose, mean | 38 h |
| [H]/N=C(/N)c1ccc(NCc2nc3cc(C(=O)N(CCC(=O)O)c4ccccn4)ccc3n2C)cc1 | – | healthy human subjects, plasma | oral, 150 mg, dabigatran etexilate alone, arithmetic mean | 8.14 h |
| CC(C)C[C@H](NC(=O)[C@H](CC(C)C)NC(=O)[C@H](Cc1c[nH]c2ccccc12)NC(=O)[C@H](CCC(=O)O)NC(=O)[C@@H](NC(=O)[C@H](Cc1ccccc1)NC(=O)[C@H](CCC(=O)O)NC(=O)[C@H](CCCCNC(=O)COCCOCCNC(=O)COCCOCCNC(=O)CC[C@H](NC(=O)CCCCCCCCCCCCCCCCCCC(=O)O)C(=O)O)NC(=O)[C@H](C)NC(=O)[C@H](CCCCN)NC(=O)[C@H](CCCCN)NC(=O)[C@H](CCC(=O)O)NC(=O)[C@H](CC(=O)O)NC(=O)[C@H](CC(C)C)NC(=O)[C@H](Cc1ccc(O)cc1)NC(=O)[C@H](CCCCN)NC(=O)[C@H](CO)NC(=O)[C@H](Cc1ccc(O)cc1)NC(=O)[C@H](CC(=O)O)NC(=O)[C@H](CO)NC(=O)[C@@H](NC(=O)[C@H](Cc1ccccc1)NC(=O)[C@@H](NC(=O)CNC(=O)[C@H](CCC(N)=O)NC(=O)C(C)(C)NC(=O)[C@@H](N)Cc1c[nH]cn1)[C@@H](C)O)[C@@H](C)O)C(C)C)C(=O)N[C@@H](CCC(=O)O)C(=O)NCC(=O)NCC(=O)N1CCC[C@H]1C(=O)N[C@@H](CO)C(=O)N[C@@H](CO)C(=O)NCC(N)=O | – | human | subcutaneous, 16 mg weekly, week 20 | ~192 h |
| CCS(=O)(=O)Nc1ccc(Oc2ccc(F)cc2F)c(-c2cn(C)c(=O)c3[nH]ccc23)c1 | – | human, plasma | oral, 1.5 mg, cycle 1 day 8, harmonic mean | 14.9 ± 7.1 h |
| Cc1nc2ccc(F)cc2n1-c1nc(N)c(F)c(Nc2ccc(C(F)(F)F)cc2)n1 | – | human patients, plasma | oral, 200 mg twice weekly, cycles 1 and 2 pooled | 9.1 h |
| CC1(COc2ccc3c(c2)ncn3-c2ccc3cccc(N4CCC(N)CC4)c3n2)COC1 | – | human patients, recurrent/progressive HGG or DIPG, serum | oral, 220 mg/m^2, day 28, median | 6.65 h |
| C=CC(=O)N(C)CCOc1c(N)ncnc1-c1cc(F)cc(NC(=O)c2ccc(C3CC3)cc2F)c1C | – | human, whole blood | oral, 200 mg, single ascending dose, median | 3.22 h |
| COC(=O)N[C@@H](C)CNc1nccc(-c2cn(C(C)C)nc2-c2cc(Cl)cc(NS(C)(=O)=O)c2F)n1 | – | human patients, plasma | oral, 450 mg twice daily, day 14, steady state, median, added: binimetinib 45 mg once daily | 4.43 h |
| C[C@H]1[C@H](OC(=O)CCC(=O)O)O[C@@H]2O[C@@]3(C)CC[C@H]4[C@H](C)CC[C@@H]1[C@@]24OO3 | – | human, both sexes, plasma | oral, dose not given, non-fixed combination | 0.59 h |
| CO[C@@H]1[C@H](OC(=O)N2CC(CCN3CCOCC3)C2)CC[C@]2(CO2)[C@H]1[C@@]1(C)O[C@@H]1CC=C(C)C | – | humans, plasma | subcutaneous, 0.2 mg twice weekly, fifth dose | 0.37 ± 0.28 h |
| CC(C)(C)[C@@H]1NC(=O)O[C@@H]2CCC[C@H]2OC/C=C/C(F)(F)c2nc3ccccc3nc2O[C@@H]2C[C@@H](C(=O)N[C@]3(C(=O)NS(=O)(=O)C4(C)CC4)C[C@H]3C(F)F)N(C2)C1=O | – | healthy human subjects, plasma | oral, single dose alone | 5.82 h |
| Cc1nc(-c2ccc(OCC(C)C)c(C#N)c2)sc1C(=O)O | – | human, plasma | oral, 20 mg once daily, added: verinurad 2.5 mg | 7.65 h |
| CC(C)(C)OC[C@@H]1C(=O)NCCN1C(=O)C[C@H](N)Cc1cc(F)c(F)cc1F | – | human, plasma | oral, steady state, EP treatment | 22.2 ± 4.08 h |
| C#C[C@]1(COP(=O)(O)O)O[C@@H](n2cnc3c(N)nc(F)nc32)C[C@@H]1O | refers to: islatravir triphosphate | human, PBMC | oral, 400 mg single dose | 127 h |

| SMILES | assay | test system | conditions | half-life |
| --- | --- | --- | --- | --- |
| O=C(COc1ccc(Cl)cc1)NC12CC(c3nnc([C@H]4C[C@@H](OC(F)(F)F)C4)o3)(C1)C2 | – | healthy human volunteers fasted, plasma | oral, 45 mg single dose, geometric mean | 30.4 h |
| Nc1c2c(cc3c1CCC3)CCC2 | – | human, plasma | oral, 450 mg of GDC-2394, single ascending dose | 35.9 h |
| Cc1ccc(-c2cc(C(F)(F)F)nn2-c2ccc(S(N)(=O)=O)cc2)cc1 | – | human, plasma | oral | 9.2 ± 4.3 h |
| Cn1cncc1[C@@](N)(c1ccc(Cl)cc1)c1ccc2c(c1)c(-c1cccc(Cl)c1)cc(=O)n2C | – | human, plasma | oral, 300 mg/m^2, median, first dose | 4.7 h |
| Cc1cc(OCCOCCC(F)(F)P(=O)(O)O)ccc1CCc1cnc2c(N)nc3cc(CCC(=O)O)ccc3c2c1 | – | human, serum | intratumoral, 200 µg every 2 weeks, cycle 1 day 1 | 18.4 h |
| COc1cc(C(=O)NC2CCN(C)CC2)c(F)cc1Nc1ncc(C(F)(F)F)c(Oc2cccc3c2C(=O)N(C)C3)n1 | – | human patients, plasma | oral, 300 mg single dose, geometric mean | 19.4 h |
| CCCCCCCOc1ccc(CCC(N)(CO)CO)cc1C(F)(F)F.Cl | – | healthy human males, plasma | oral, 0.25 mg, day 21 | 409 h |
| C[C@@H]1CCO[C@H]2Cn3cc(C(=O)NCc4ccc(F)cc4F)c(=O)c(O)c3C(=O)N12 | – | human, haemodialysis patients, plasma | oral, fixed-dose combination | 9.5 h |
| CC(C)(Sc1ccncc1-c1ccc(C#N)c2ccccc12)C(=O)O | – | human, plasma | oral, 5 mg once daily, added: febuxostat 10 mg | 24 h |
| C#C[C@]1(CO)O[C@@H](n2cnc3c(N)nc(F)nc32)C[C@@H]1O | – | human, plasma | oral, 200 mg, single dose, geometric mean | 61.3 h |
| CC(C)NC(=O)COc1cccc(-c2nc(Nc3ccc4[nH]ncc4c3)c3ccccc3n2)c1 | – | human male, plasma | oral, 200 mg, day 6, fed, alone, geometric mean | 5 h |
| CC[C@H](C)CCCCC(=O)N[C@@H](CCN)C(=O)N[C@H](C(=O)N[C@@H](CCN)C(=O)N[C@H]1CCNC(=O)[C@H]([C@@H](C)O)NC(=O)[C@H](CCN)NC(=O)[C@H](CCN)NC(=O)[C@H](CC(C)C)NC(=O)[C@@H](Cc2ccccc2)NC(=O)[C@H](CCN)NC1=O)[C@@H](C)O | – | human, mild renal insufficiency, plasma | intravenous, 0.75 mg/kg, single 1-h infusion,, arithmetic mean | 7.39 h |
| C[C@H](Oc1ccc(Br)cc1-c1ccon1)C(=O)O | LC-MS/MS, non-compartmental | human, plasma | 600 mg once daily, day 1, multiple ascending dose, mean | 4.67 h |
| COc1ncc(-c2nc3c(n2C(C)C)[C@H](c2ccc(Cl)cc2)N(c2cc(Cl)cn(C)c2=O)C3=O)c(OC)n1 | – | human, plasma | oral, 150 mg, C2D1, high-dose, median | 13.4 h |
| O=C1CC[C@H](N2Cc3cc(N4CCN(CC5CCN(c6ccc([C@@H]7c8ccc(O)cc8CC[C@@H]7c7ccccc7)cc6)CC5)CC4)ccc3C2=O)C(=O)N1 | – | human | oral, 200 mg, added: rosuvastatin 10 mg | 29.9 h |
| Fc1ccc([C@@H]2CCNC[C@H]2COc2ccc3c(c2)OCO3)cc1 | – | human, CYP2D6 normal metabolizers | oral, 20 mg, steady state, geometric mean | 20 h |
| NC(CO)(CO)CCc1ccc(Sc2cccc(OCc3ccccc3)c2)cc1Cl | – | human, whole blood | oral, 3 mg, mean, alone | 110 h |
| CC#CC(=O)N1CC[C@@H](n2c(=O)n(-c3ccc(Oc4ccccc4)cc3)c3c(N)ncnc32)C1 | – | human, fasting, plasma | oral, 480 mg once daily, cycle 1 day 28 | ~3.9 h |
| CO[C@H]1C[C@@H]2CC[C@@H](C)[C@@](O)(O2)C(=O)C(=O)N2CCCC[C@H]2C(=O)O[C@H]([C@H](C)C[C@@H]2CC[C@@H](OC(=O)NCCOCCOCCOCCOCCOCCOCCOCCOCCC(=O)N3CCc4cc(Cn5nc(-c6ccc7oc(N)nc7c6)c6c(N)ncnc65)ccc4C3)[C@H](OC)C2)C[C@@H](O)[C@H](C)/C=C(\C)[C@@H](O)[C@@H](OC)C(=O)[C@H](C)C[C@H](C)/C=C/C=C/C=C/1C | – | human, plasma | intravenous, 8 mg, cycle 1 day 1, arithmetic mean | 5.7 h |
| N#Cc1cc(NC(=O)[C@H]2c3ccccc3C(=O)N(CC(F)(F)F)[C@@H]2c2cccnc2)ccc1F | – | human, plasma | oral, 300 mg, median | 20.1 h |
| C[C@@H](Nc1cc(F)cc(F)c1)c1cc(C(=O)N(C)C)cc2c(=O)cc(N3CCOCC3)oc12 | – | human, plasma | oral, 180 mg single dose, day 1, range, 5:2 twice daily schedule | 4.29 to 7.86 h |
| CC(C)[C@H](N)C(=O)NCCCS(=O)(=O)O | – | human, plasma | oral, 256.5 mg once daily, day 1, fed, capsule | 1.07 h |
| COc1ccc([C@@H](O)c2cc(-c3ncnc4cc(N5CCOCC5)ccc34)c(F)cc2Cl)nn1 | – | human, plasma | oral, 250 mg twice daily, single dose, geometric mean | 2.25 h |

Repeated from above:
| SMILES | assay | test system | conditions | half-life |
| --- | --- | --- | --- | --- |
| [H]/N=C(/N)c1ccc(NCc2nc3cc(C(=O)N(CCC(=O)O)c4ccccn4)ccc3n2C)cc1 | – | healthy human subjects, plasma | oral, 150 mg, dabigatran etexilate alone, arithmetic mean | 8.14 h |
| CC(C)(Sc1ccncc1-c1ccc(C#N)c2ccccc12)C(=O)O | – | human, plasma | oral, 5 mg once daily, added: febuxostat 10 mg | 24 h |
| N#Cc1cc(NC(=O)[C@H]2c3ccccc3C(=O)N(CC(F)(F)F)[C@@H]2c2cccnc2)ccc1F | – | human, plasma | oral, 300 mg, median | 20.1 h |
